Experimental data collected from several papers.
Lines come from different studies, so protocols differ. Several values in a cell are separate wells, animals, samples, runs or records. ± marks the error that the study gave.

`CN[C@@](C)(C[18F])C(=O)O` gave a tracer uptake of 27 %ID/g (MDA-MB-468 tumour model; host not given, pancreas; 1 h, tumour-bearing).
`CNC(C)Cc1ccc2c(c1)OCO2` (racemic) gave a mood rating of 10.1 (visual analog scale, item: Confident; human; oral, 1.5 mg/kg, mean over session, unit not given; relative to: pre-dose baseline).
For `CC(C)C[C@@H](C=O)NC(=O)[C@H](CC(C)C)NC(=O)[C@H](CC(C)C)NC(=O)OCc1ccccc1`, the EC50 was 5 µM (HeLa (transiently transfected); N-cyclin B-luciferase fusion level).
The EC50 of `N.N.[Cl][Pt][Cl]` is reported as 0.31 µM (HAP1; cell growth or viability).
With `OO` the EC50 was 125 µM (primary pig RPE cells; cell death, ATP content; added: TNF-alpha 10 ng/mL).
`corticotropin-releasing factor (human/rat)` has an EC50 of 0.008 µM (rat hippocampal pyramidal neurons; CREB phosphorylation, agonist, item: pCREB Ser133; 15 min).
`O=S(=O)(F)Cc1ccccc1` gave an EC50 of over 1000 µM (SH-SY5Y; cell degeneration; concentration not given).
`CC(C)(C)c1cc(C=C(C#N)C#N)cc(Br)c1O` gave an EC50 of 9.83 µM (human PBMC; T cell expansion, resazurin; 7 days, added: concanavalin A 2 µg/mL).
`CCC[C@@H](C)[C@H](O)[C@H](C)[C@H]1OC(=O)[C@H]([C@@H](C)O)NC(=O)[C@H](C(C)C)OC(=O)[C@H](C)[C@H](O)[C@H]([C@@H](C)CC)NC(=O)[C@@]2(C)CSC(=N2)[C@@]2(C)CSC(=N2)c2csc(n2)C[C@H](OC)[C@@H]1C` has an EC50 of 0.0456 µM (mouse neocortical neurons; spontaneous Ca2+ oscillations, inhibitor, fluo-3 Ca2+ imaging).
With `[Cl][Au].c1ccc(P(c2ccccc2)c2ccccc2)cc1` the EC50 was 3.32 µM (BT-474; cell growth or viability, resazurin; 72 h).
The EC50 of `CC12OC(=O)C1(C(O)C1C=CCCC1)NC(=O)C2CCN=[N+]=[N-]` (stereo not shown) is reported as 4.5 µM (Jurkat; DNA fragmentation, propidium iodide flow cytometry; 24 h).
`F[P-](F)(F)(F)(F)F.F[P-](F)(F)(F)(F)F.[Ru+2].c1ccc(-c2ccccn2)nc1.c1ccc(-c2ccccn2)nc1.c1csc(-c2ccc(-c3cc4cccnc4c4ncccc34)s2)c1` has an EC50 of 14.3 µM and ~14 µM (SK-MEL-28; cell viability, resazurin; 16 h drug-to-light interval, added: red light 625 nm, 100 J/cm2).
`CC(=O)c1cc2c(cc1C)C(C)(C)C(C)CC2(C)C` (stereo not shown) has an EC50 of 98 µM (SH-SY5Y; cell growth or viability, resazurin).
The EC50 of `COc1cc(Nc2ncc(F)c(Nc3ccc4c(n3)NC(=O)C(C)(C)O4)n2)cc(OC)c1OC` is reported as 0.0473 ± 0.011 µM (HUVEC; VEGF-dependent tube formation).
`C[C@H]1CNCCc2ccc(Cl)cc21` has a Tmax of 17.4 min (male Sprague-Dawley rat, plasma; subcutaneous, 0.5 mg/kg, single dose).
The EC50 of `CC(C)[C@@H]1NC(=O)[C@@H]2Cc3ccc(cc3)O[C@H]3C[C@H](NC3=O)C(=O)N3CCC[C@H]3C(=O)N[C@@H](Cc3ccc(O)cc3)C(=O)N[C@@H](C(=O)N[C@@H](C(C)C)C(=O)N2)c2cc(ccc2O)C[C@@H](C(=O)O)NC1=O` is reported as 1.46 µM (H9c2; cell viability, protective, Alamar blue; 12 h, added: doxorubicin 8.6 µM).
